# Experimental data of several laboratories.
# Protocols differ between the studies behind these lines. Several values in a cell are separate wells, animals, samples, runs or records. ± gives the spread as reported.
# MAL12: Alpha-glucosidase MAL12 (MAL12, Saccharomyces cerevisiae S288c, UniProt P53341)
# UniProt P53341, sequence (whole entry, looked up): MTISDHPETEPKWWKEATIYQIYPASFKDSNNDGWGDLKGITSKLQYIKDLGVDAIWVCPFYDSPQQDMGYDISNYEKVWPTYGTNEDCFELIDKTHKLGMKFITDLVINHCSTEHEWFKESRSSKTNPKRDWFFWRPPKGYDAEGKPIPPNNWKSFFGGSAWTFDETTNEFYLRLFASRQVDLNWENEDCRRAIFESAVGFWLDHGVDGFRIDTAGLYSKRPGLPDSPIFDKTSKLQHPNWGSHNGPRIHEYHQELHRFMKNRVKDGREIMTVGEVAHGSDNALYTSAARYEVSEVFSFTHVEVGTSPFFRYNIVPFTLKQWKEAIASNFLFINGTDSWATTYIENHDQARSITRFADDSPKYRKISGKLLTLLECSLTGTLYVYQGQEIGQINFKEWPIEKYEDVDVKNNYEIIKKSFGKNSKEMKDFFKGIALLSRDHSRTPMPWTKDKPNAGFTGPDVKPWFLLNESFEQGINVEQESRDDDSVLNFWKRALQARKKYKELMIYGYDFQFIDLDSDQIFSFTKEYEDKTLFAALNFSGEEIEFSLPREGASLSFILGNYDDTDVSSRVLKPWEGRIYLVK
# AKR1C3: Aldo-keto reductase family 1 member C3 (AKR1C3, Homo sapiens, UniProt P42330)
# UniProt P42330, sequence (whole entry, looked up): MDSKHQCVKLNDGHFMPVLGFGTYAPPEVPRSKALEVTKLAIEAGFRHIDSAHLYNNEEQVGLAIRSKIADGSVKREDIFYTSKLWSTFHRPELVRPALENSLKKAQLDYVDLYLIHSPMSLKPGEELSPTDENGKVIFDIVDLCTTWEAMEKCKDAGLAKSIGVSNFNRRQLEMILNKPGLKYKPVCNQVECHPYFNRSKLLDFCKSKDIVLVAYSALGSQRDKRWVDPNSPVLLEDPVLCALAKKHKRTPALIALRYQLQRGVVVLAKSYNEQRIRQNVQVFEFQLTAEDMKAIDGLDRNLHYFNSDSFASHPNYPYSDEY
# OPRM1: Mu-type opioid receptor (OPRM1, Homo sapiens, UniProt P35372)
# UniProt P35372, sequence (whole entry, looked up): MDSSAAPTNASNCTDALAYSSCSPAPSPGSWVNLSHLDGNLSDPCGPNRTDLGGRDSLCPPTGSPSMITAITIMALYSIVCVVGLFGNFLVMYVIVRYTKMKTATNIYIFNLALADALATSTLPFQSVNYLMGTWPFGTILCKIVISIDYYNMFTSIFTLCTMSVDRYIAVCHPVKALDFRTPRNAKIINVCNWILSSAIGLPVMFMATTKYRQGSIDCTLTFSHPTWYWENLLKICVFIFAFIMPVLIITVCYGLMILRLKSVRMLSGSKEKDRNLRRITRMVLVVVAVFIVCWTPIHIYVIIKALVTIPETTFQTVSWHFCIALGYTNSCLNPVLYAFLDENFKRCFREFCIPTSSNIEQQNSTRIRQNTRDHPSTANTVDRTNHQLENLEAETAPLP
# PARP16: Protein mono-ADP-ribosyltransferase PARP16 (PARP16, Homo sapiens, UniProt Q8N5Y8)
# UniProt Q8N5Y8, sequence (whole entry, looked up): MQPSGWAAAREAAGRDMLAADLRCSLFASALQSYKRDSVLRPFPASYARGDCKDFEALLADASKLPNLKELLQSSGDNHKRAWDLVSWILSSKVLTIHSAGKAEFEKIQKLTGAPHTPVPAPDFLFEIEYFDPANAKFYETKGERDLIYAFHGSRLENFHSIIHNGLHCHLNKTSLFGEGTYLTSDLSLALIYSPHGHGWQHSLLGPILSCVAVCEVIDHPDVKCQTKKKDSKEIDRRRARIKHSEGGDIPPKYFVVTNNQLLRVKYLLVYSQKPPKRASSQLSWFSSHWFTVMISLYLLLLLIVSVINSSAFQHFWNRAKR
# SLC22A5: Organic cation/carnitine transporter 2 (SLC22A5, Homo sapiens, UniProt O76082)
# UniProt O76082, sequence (whole entry, looked up): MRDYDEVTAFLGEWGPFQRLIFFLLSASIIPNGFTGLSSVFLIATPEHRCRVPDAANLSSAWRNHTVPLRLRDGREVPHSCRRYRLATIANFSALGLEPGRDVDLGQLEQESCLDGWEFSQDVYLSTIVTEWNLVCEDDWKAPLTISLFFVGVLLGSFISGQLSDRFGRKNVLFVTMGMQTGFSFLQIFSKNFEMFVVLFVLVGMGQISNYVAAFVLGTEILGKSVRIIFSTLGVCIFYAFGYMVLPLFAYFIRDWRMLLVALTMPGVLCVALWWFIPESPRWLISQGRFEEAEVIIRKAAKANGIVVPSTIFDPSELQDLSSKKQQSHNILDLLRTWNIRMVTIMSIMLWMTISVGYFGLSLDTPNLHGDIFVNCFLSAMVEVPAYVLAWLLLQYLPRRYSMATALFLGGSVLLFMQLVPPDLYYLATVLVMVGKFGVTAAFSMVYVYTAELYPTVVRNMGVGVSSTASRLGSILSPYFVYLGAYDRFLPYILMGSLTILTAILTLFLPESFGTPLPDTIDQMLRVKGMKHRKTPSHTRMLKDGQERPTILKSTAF
# UniProt P34972, sequence (whole entry, looked up): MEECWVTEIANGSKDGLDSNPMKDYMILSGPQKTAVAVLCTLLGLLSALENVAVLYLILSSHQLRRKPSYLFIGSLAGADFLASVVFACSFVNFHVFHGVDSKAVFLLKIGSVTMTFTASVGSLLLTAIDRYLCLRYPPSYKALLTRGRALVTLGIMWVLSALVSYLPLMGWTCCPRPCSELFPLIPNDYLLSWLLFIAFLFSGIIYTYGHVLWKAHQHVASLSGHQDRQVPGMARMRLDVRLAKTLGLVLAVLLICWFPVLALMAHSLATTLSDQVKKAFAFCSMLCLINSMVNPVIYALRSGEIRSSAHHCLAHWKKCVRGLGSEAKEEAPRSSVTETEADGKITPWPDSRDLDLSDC
# UniProt Q6B856, sequence (whole entry, looked up): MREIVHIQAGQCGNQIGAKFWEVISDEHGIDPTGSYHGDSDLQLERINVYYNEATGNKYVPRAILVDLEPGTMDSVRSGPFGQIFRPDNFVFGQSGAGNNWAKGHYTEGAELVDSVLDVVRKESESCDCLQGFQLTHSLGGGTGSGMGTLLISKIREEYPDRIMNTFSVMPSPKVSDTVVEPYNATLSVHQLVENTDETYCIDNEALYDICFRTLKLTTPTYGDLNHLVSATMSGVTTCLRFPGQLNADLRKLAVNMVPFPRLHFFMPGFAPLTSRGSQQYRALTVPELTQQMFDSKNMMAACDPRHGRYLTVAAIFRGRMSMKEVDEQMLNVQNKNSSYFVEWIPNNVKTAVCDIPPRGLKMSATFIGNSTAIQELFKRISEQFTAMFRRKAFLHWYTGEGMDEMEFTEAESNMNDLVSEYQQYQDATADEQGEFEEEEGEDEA
# UniProt Q8K424, sequence (whole entry, looked up): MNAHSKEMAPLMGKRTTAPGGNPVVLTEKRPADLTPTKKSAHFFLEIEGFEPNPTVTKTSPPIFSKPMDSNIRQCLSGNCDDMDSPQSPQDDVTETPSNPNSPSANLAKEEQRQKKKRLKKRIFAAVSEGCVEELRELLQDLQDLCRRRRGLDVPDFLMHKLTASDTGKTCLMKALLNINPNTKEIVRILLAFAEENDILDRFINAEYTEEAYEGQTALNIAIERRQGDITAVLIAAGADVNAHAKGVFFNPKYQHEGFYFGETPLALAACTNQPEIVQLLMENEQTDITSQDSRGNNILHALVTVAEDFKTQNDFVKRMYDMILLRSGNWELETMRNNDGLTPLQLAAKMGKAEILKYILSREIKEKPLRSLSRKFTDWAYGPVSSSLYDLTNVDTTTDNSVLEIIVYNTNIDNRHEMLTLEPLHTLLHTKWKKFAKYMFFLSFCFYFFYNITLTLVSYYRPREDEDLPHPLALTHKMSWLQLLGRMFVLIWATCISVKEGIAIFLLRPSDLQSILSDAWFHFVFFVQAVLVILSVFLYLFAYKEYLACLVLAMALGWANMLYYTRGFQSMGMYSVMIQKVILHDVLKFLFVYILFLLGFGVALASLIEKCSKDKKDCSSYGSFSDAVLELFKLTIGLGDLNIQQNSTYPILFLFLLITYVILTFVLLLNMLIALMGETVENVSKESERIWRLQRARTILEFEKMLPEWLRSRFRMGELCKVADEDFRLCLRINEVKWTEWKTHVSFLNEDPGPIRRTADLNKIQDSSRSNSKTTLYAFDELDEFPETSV
# UniProt Q92831, sequence (whole entry, looked up): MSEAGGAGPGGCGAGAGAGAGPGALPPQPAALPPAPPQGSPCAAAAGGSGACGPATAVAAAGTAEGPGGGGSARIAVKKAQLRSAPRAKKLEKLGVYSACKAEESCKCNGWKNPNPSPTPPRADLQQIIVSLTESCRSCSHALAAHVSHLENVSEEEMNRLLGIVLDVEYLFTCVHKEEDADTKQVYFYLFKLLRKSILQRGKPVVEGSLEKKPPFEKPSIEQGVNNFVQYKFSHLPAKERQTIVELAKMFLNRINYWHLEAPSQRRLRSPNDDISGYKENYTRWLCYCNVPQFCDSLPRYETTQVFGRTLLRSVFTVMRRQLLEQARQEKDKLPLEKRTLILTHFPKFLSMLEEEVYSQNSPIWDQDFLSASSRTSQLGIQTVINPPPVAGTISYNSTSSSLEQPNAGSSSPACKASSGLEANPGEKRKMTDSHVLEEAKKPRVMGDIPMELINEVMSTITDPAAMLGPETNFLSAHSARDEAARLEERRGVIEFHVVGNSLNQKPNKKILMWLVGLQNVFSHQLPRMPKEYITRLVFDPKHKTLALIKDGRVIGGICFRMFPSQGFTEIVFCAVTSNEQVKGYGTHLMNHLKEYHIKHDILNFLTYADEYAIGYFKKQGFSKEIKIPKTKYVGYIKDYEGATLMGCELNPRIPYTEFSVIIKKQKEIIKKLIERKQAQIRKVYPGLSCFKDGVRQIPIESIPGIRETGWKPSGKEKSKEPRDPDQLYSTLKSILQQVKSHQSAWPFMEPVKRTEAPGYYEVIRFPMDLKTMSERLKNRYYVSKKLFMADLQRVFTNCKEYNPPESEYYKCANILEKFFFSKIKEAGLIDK
SMILES,target,test,test system,conditions,inhibition
COc1ccc(-c2cc(=O)c3c(O)cc(OC)cc3o2)cc1,MAL12,"enzyme activity, inhibitor, absorbance",,50 µM,3.7%
C[C@@]12CC[C@@H]3c4cc(Br)c(O)c(I)c4CC[C@H]3[C@@H]1CCC2=O,AKR1C3,"enzyme activity, inhibitor, absorbance",,"100 µM, pH 9",88.9%
COCCCOc1cc(C[C@@H](C[C@H](N)[C@@H](O)C[C@H](C(=O)NCC(C)(C)C(N)=O)C(C)C)C(C)C)ccc1OC,"Renin (Rattus norvegicus, UniProt P08424)",angiotensin I formation,NRK-52E nuclear lysate,"1 µM, added: trypsin-activated prorenin",93%
CCc1c(C(=O)NCCc2ccc(N(CC)CC)cc2)[nH]c2ccc(Cl)cc12,"Cannabinoid receptor 2 (CNR2, Homo sapiens, UniProt P34972)","calcium signal, antagonist",,10 µM,-44% and -44.4%
CCCCCCCCCCCCCCCc1cccc(O)c1C(=O)O,"Histone acetyltransferase KAT2B (KAT2B, Homo sapiens, UniProt Q92831)","enzyme activity, inhibitor, radiometric",,200 µM,≤ 35%
C[C@@]12CC[C@@H]3c4cc(I)c(O)c(Br)c4CC[C@H]3[C@@H]1CCC2=O,AKR1C3,"enzyme activity, inhibitor, absorbance",,"10 µM, pH 9",40%
CC(C)/C=C/c1c(O)cc(/C=C/c2ccc(O)c(O)c2)cc1O,OPRM1,radioligand binding,,"10 µM, 60 min, added: [3H]DAMGO",-80%
COc1c(O)cc(O)c2c(=O)cc(-c3ccc(O)cc3)oc12,MAL12,"enzyme activity, inhibitor, absorbance",,10 µM,20.5%
O=C1CCNC(=O)c2cc(Cl)c(Cl)cc21,PARP16,"enzyme activity, inhibitor",,10 µM,0%
C[C@@]12CC[C@@H]3c4cc(Br)c(O)c(Cl)c4CC[C@H]3[C@@H]1CCC2=O,AKR1C3,"enzyme activity, inhibitor, absorbance",,"10 µM, pH 9",50%
CC(C)/C=C/c1c(O)cc(/C=C/c2ccc(O)cc2)cc1O,OPRM1,radioligand binding,,"10 µM, 60 min, added: [3H]DAMGO",-58.3%
COc1cc2oc(-c3ccccc3)cc(=O)c2c(OC)c1O,MAL12,"enzyme activity, inhibitor, absorbance",,50 µM,21.1%
Cc1ccc(O)c(C=NNC(=S)NC2CCCCC2)c1,"Aldo-keto reductase family 1 member B1 (AKR1B1, Homo sapiens, UniProt P15121)","enzyme activity, inhibitor, absorbance",,100 µM,< 50%
COc1c(O)ccc2c(=O)cc(-c3ccccc3)oc12,MAL12,"enzyme activity, inhibitor, absorbance",,100 µM,89.3%
O=C(O)c1ccccc1Nc1cccc(C(F)(F)F)c1,"Transient receptor potential cation channel subfamily V member 3 (Trpv3, Mus musculus, UniProt Q8K424)","ion current, two-electrode voltage clamp",Xenopus oocytes,"100 µM, -100 mV, added: 2-APB 100 µM",67%
COc1ccc2c(c1)-c1c(sc3ccc(OC)cc13)C2=O,"Dual specificity tyrosine-phosphorylation-regulated kinase 1A (DYRK1A, Homo sapiens, UniProt Q13627)","enzyme activity, inhibitor, radiometric",,1 µM,25 to 32%
C[N+](C)(C)C[C@@H](O)CC(=O)[O-],SLC22A5,"transporter uptake, inhibitor",,10 µM,36.4%
C[C@@]12CC[C@@H]3c4cc(I)c(O)c(Cl)c4CC[C@H]3[C@@H]1CCC2=O,AKR1C3,"enzyme activity, inhibitor, absorbance",,"100 µM, pH 9",72.2%
COc1ccc(-c2cc(=O)c3ccc(O)cc3o2)cc1,MAL12,"enzyme activity, inhibitor, absorbance",,25 µM,7.4%
COc1cc(-c2nc(N)sc2-c2ccc(C)cc2)cc(OC)c1OC,"Tubulin alpha-1B chain/TUBB2B, colchicine site (Bos taurus, UniProt P81947+Q6B856)",[3H]colchicine binding,,1 5 5 µM,88 ± 0.71%
COc1cc2oc(-c3ccc(O)cc3)cc(=O)c2c(O)c1OC,MAL12,"enzyme activity, inhibitor, absorbance",,10 µM,23.4%
O=C1CCCc2ccc(F)cc2N1,PARP16,"enzyme activity, inhibitor",,10 µM,93.5%
COc1c(-c2ccc(O)cc2)oc2c(OC)c(O)cc(O)c2c1=O,MAL12,"enzyme activity, inhibitor, absorbance",,2.5 µM,40.1%
C[C@@]12CC[C@@H]3c4cc(Cl)c(O)c(Br)c4CC[C@H]3[C@@H]1CCC2=O,AKR1C3,"enzyme activity, inhibitor, absorbance",,"10 µM, pH 9",25%
COc1cc(-c2cc(=O)c3ccc(O)c(OC)c3o2)cc(O)c1OC,MAL12,"enzyme activity, inhibitor, absorbance",,25 µM,20%
CC[C@]1(O)C[C@H]2CN(CCc3c([nH]c4ccccc34)[C@@](C(=O)OC)(c3cc4c(cc3OC)N(C=O)[C@H]3[C@@](O)(C(=O)OC)[C@H](OC(C)=O)[C@]5(CC)C=CCN6CC[C@]43[C@@H]65)C2)C1,SLC22A5,"transporter uptake, inhibitor",,100 µM,75%
